{"data": "Measured values collected from several papers", "note": "A part holds a random share of what one study measured. Positions count from the first letter of the parent shown."}
{"data": "Sample 1", "target": "Ras GTPase-activating protein-binding protein 1, RRM domain (G3BP1, Homo sapiens, UniProt Q13283)", "technique": "RNA Bind-n-Seq", "form": "RNA", "medium": "in vitro", "concentration": "1 µM", "notes": "whole 134-nt RNA, ends assumed", "with": "150 mM KCl", "reference": "input library", "direction": "higher = stronger binding", "sequence of UniProt Q13283 (whole entry, looked up)": "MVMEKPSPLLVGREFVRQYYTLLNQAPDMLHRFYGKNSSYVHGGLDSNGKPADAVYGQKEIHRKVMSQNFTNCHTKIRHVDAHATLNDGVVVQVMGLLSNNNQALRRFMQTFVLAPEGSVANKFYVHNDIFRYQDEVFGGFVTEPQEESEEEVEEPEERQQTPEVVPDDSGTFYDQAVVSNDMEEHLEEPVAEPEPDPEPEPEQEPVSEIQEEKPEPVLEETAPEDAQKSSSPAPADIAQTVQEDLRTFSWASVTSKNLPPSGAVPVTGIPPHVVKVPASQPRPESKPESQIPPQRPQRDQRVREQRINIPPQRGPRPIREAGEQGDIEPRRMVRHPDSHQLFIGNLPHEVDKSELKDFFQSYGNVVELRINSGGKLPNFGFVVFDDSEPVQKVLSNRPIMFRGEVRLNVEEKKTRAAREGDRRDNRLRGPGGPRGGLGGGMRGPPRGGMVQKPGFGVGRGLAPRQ"}
{"Oligonucleotide": "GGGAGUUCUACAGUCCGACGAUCCCUGUGCUACACAUCGUAUGUACCGAAUCGGGAAAAAAAGGGUUUUUGGGUUUUUUUGGGAAAGUAUUAUGUUACGCCGUUCGGAUCUGCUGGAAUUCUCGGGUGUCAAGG", "log2 enrichment": -0.198}
{"Oligonucleotide": "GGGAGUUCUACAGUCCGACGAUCCCUGUGCUACACAUCGUAUGUACCGAAUCGGGAAAAAAAGGAAAAAAAGGGAAAAAAAGGGAAAGUAUUAUGUUACGCCGUUCGGAUCUGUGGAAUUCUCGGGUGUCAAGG", "log2 enrichment": -0.044}
{"Oligonucleotide": "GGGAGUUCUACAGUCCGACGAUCUCAAGUCCUGUGCUACACAUCGUAUGUACCGAAUCGGCCCGGGCCCGGCCCGGGAAAGUAUUAUGUUACGCCGUUCGGAUCUGCACUUCCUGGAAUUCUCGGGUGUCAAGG", "log2 enrichment": -0.612}
{"Oligonucleotide": "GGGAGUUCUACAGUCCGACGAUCAGUCCUGUGCUACACAUCGUAUGUACCGAAUCGGGAAAAAGGAAAAAGGGAAAAAGGGAAAGUAUUAUGUUACGCCGUUCGGAUCUGCACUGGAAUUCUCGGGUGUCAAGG", "log2 enrichment": -0.0709}
{"Oligonucleotide": "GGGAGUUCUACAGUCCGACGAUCAAGUCCUGUGCUACACAUCGUAUGUACCGAAUCGGGUUUGGGUUUGGGAAAAAGGGAAAGUAUUAUGUUACGCCGUUCGGAUCUGCACUUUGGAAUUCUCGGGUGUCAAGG", "log2 enrichment": 0.44}
{"Oligonucleotide": "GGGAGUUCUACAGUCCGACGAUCUCAAGUCCUGUGCUACACAUCGUAUGUACCGAAUCGGUUGGGGUUGGGGUUGGGAAAGUAUUAUGUUACGCCGUUCGGAUCUGCACUUCCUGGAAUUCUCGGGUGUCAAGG", "log2 enrichment": 0.408}
{"Oligonucleotide": "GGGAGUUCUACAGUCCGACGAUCGUCCUGUGCUACACAUCGUAUGUACCGAAUCGGGGCCCCCGGCCCCCGGGGCCCCCGGAAAGUAUUAUGUUACGCCGUUCGGAUCUGCACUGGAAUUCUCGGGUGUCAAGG", "log2 enrichment": -0.977}
{"Oligonucleotide": "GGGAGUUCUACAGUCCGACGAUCUCUCAGCAGGCGCAUCUACACUAGUGACCUGAGGAGAGAAACCCUAACCCCACAAUGGCUGCAUCUUCUCUGAAGACGAGACUGAUGCUCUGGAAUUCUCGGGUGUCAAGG", "log2 enrichment": -0.0875}
{"Oligonucleotide": "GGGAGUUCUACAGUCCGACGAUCUUAAGAAUUUGCUUAAAGAAGUGCGGAUCUAUGCACAGAAAUUUAUUGAUCGAGGAAAGGAUUUUAACUUGGAGUUGGCAAUUAAAACACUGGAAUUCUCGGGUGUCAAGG", "log2 enrichment": 0.0876}
{"Oligonucleotide": "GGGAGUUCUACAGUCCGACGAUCCCUGUGCUACACAUCGUAUGUACCGAAUCGGGGUUUUUGGGGAAAGGGGUUUUUUUGGGGAAAGUAUUAUGUUACGCCGUUCGGAUCUGCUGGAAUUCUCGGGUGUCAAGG", "log2 enrichment": 0.61}
{"data": "Sample 2", "target": "CCNA2, cyclin fold, Cln2 fusion (human)", "technique": "yeast growth competition, sequencing", "medium": "yeast", "notes": "weak parent motif", "reference": "not given", "direction": "higher = stronger binding", "starting sequence": "SLBP docking peptide (human); ARYKRKLLINDFG"}
{"Change": "R5V", "normalised enrichment score": 1.53}
{"Change": "G13F", "normalised enrichment score": 1.4}
{"Change": "A1Q", "normalised enrichment score": -0.0598}
{"Change": "I9H", "normalised enrichment score": 1.69}
{"Change": "F12E", "normalised enrichment score": 0.454}
{"Change": "K6R", "normalised enrichment score": 1.09}
{"Change": "R2C", "normalised enrichment score": 0.705}
{"Change": "K6F", "normalised enrichment score": 1.36}
{"Change": "L8Y", "normalised enrichment score": 0.963}
{"Change": "Y3E", "normalised enrichment score": 1.02}
{"Change": "I9D", "normalised enrichment score": 0.346}
{"Change": "G13V", "normalised enrichment score": 2.02}
{"Change": "L8F", "normalised enrichment score": 1.8}
{"Change": "A1R", "normalised enrichment score": 0.958}
{"Change": "N10A", "normalised enrichment score": 1.46}
{"Change": "I9G", "normalised enrichment score": 1.26}
{"Change": "L8H", "normalised enrichment score": 1.32}
{"Change": "R2S", "normalised enrichment score": -0.12}
{"Change": "Y3C", "normalised enrichment score": 1.44}
{"Change": "K4A", "normalised enrichment score": 0.369}
{"Change": "G13I", "normalised enrichment score": 1.63}
{"Change": "K4P", "normalised enrichment score": 0.0091}
{"Change": "R2P", "normalised enrichment score": 1.4}
{"Change": "K6T", "normalised enrichment score": 1.32}
{"Change": "K4I", "normalised enrichment score": 1.09}
{"data": "Sample 3", "target": "Sal-like protein 4, full length isoform A (SALL4, Homo sapiens, UniProt Q9UJQ4, residues 1-1053)", "technique": "universal PBM", "form": "double-stranded DNA, one strand shown", "medium": "in vitro", "concentration": "600 nM", "notes": "8-mer, flanks averaged, mean of replicates", "direction": "higher = stronger binding", "sequence of UniProt Q9UJQ4 (whole entry, looked up)": "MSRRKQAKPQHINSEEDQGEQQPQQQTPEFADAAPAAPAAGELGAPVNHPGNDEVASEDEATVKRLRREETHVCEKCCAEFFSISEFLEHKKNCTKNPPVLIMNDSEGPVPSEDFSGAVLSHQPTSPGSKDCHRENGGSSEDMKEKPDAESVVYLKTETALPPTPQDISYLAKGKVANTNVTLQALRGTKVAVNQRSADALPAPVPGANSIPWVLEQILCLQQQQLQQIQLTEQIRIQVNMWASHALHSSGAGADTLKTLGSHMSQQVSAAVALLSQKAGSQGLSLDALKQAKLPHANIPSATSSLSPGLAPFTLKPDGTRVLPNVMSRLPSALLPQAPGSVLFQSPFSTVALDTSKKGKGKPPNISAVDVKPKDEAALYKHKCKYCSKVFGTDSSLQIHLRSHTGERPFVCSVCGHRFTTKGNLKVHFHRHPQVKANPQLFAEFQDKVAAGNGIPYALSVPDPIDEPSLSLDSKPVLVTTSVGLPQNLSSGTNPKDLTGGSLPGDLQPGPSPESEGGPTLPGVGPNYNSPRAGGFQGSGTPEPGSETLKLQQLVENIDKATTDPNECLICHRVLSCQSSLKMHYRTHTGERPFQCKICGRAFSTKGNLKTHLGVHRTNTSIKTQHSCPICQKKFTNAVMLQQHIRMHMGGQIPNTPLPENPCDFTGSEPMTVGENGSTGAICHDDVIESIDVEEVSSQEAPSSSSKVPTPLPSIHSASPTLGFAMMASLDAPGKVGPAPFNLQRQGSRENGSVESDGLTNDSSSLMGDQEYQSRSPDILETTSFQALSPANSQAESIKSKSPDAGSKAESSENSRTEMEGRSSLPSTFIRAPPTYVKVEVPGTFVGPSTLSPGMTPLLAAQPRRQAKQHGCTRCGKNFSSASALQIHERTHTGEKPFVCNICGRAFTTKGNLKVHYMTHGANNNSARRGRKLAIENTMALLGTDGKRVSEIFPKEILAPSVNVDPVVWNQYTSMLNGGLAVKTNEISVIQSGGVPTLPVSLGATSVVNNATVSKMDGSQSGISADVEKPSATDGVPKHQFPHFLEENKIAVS"}
{"Oligonucleotide": "AACGCATG", "E-score": -0.0152}
{"Oligonucleotide": "GCATAACC", "E-score": 0.0256}
{"Oligonucleotide": "CCAAGCGA", "E-score": -0.207}
{"Oligonucleotide": "ATTGATTA", "E-score": 0.311}
{"Oligonucleotide": "ACCTCAGG", "E-score": -0.371}
{"Oligonucleotide": "CCCTCTCA", "E-score": -0.206}
{"Oligonucleotide": "ATGATAAG", "E-score": 0.272}
{"Oligonucleotide": "TCAGACGA", "E-score": 0.0275}
{"Oligonucleotide": "CATAACCG", "E-score": 0.157}
{"Oligonucleotide": "CGGAAGCA", "E-score": -0.0962}
{"Oligonucleotide": "GAGCATGA", "E-score": -0.0263}
{"Oligonucleotide": "AAAAGAGT", "E-score": 0.031}
{"Oligonucleotide": "CGTCGATC", "E-score": -0.0318}
{"Oligonucleotide": "AGGTATAA", "E-score": 0.243}
{"Oligonucleotide": "CCGCCGCA", "E-score": -0.204}
{"Oligonucleotide": "AAAGATAC", "E-score": 0.0641}
{"Oligonucleotide": "CTAATGCC", "E-score": -0.0189}
{"Oligonucleotide": "AAGTGCGA", "E-score": -0.183}
{"Oligonucleotide": "CATAATCG", "E-score": 0.237}
{"Oligonucleotide": "CCCGTTTA", "E-score": 0.0617}
{"Oligonucleotide": "CGATGGAA", "E-score": -0.0866}
{"Oligonucleotide": "CACATGCA", "E-score": -0.0452}
{"Oligonucleotide": "GCCACAAC", "E-score": 0.0347}
{"Oligonucleotide": "CGGCTTTC", "E-score": -0.235}
{"Oligonucleotide": "GTATTGAA", "E-score": 0.263}
{"data": "Sample 4", "target": "ABI1, truncated, D143A, DHFR fusion (Arabidopsis thaliana)", "technique": "DHFR PCA, deep sequencing", "medium": "yeast", "notes": "methotrexate growth selection, single substitutions", "with": "(+)-ABA 0.39 µM", "reference": "wild-type fitted maximum", "direction": "higher = stronger binding", "starting sequence": "PYL1, truncated, DHFR fusion (Arabidopsis thaliana); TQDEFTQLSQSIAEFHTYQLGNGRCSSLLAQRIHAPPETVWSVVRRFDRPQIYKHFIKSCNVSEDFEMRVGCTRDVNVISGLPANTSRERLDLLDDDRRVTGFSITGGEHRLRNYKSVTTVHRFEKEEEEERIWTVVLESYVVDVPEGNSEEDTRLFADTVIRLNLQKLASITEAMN"}
{"Change": "N177K", "relative binding score [%]": 35.7}
{"Change": "I57V", "relative binding score [%]": 33.5}
{"Change": "Q31M", "relative binding score [%]": 1.11}
{"Change": "L29T", "relative binding score [%]": -4.31}
{"Change": "A30E", "relative binding score [%]": 6.69}
{"Change": "R49H", "relative binding score [%]": 24.8}
{"Change": "V62R", "relative binding score [%]": -0.25}
{"Change": "V121D", "relative binding score [%]": 3.69}
{"Change": "T17A", "relative binding score [%]": 20.1}
{"Change": "P146V", "relative binding score [%]": 19.3}
{"Change": "S42I", "relative binding score [%]": -1.86}
{"Change": "C25V", "relative binding score [%]": 65.5}
{"Change": "L82M", "relative binding score [%]": 42.3}
{"Change": "E139Q", "relative binding score [%]": 49.6}
{"Change": "A35D", "relative binding score [%]": -14}
{"data": "Single results of other studies"}
{"Substance": "PhoQ, residues 284 288 289 292 302 303 SACGEM", "target": "PhoP, residues 12 14 15 18 19 NFCKL (Escherichia coli, UniProt P23836)", "assay": "Sort-seq, item: YFP reporter", "system": "E. coli", "setting": "PhoQ-PhoP variant library, with: 10 µM Mg2+", "how to read": "reference: high Mg2+ state, higher = stronger signaling", "endpoint": "fold induction", "value": 0.552}
{"note": "Some of these lines once more (sample 3):"}
{"Oligonucleotide": "AAAAGAGT", "E-score": 0.031}
{"Oligonucleotide": "CCCGTTTA", "E-score": 0.0617}
{"Oligonucleotide": "CACATGCA", "E-score": -0.0452}
{"Oligonucleotide": "CCCTCTCA", "E-score": -0.206}
{"Oligonucleotide": "CCGCCGCA", "E-score": -0.204}
